Experimental data gathered from unrelated publications.
A part holds a random share of what one study measured.

Block 1
Target: RNA binding protein fox-1 homolog 2, RRM domain, GST-SBP tag (RBFOX2, Homo sapiens, UniProt O43251-10, residues 100-194)
Technique: RNA Bind-n-Seq
Molecule type: RNA
Medium: in vitro
Tested at: 365 nM
Notes: natural RNA segment, single round, ends assumed
Relative to: no-protein control
Reading: higher = stronger binding
Endpoint: RBNS enrichment (R)
Residues (chain): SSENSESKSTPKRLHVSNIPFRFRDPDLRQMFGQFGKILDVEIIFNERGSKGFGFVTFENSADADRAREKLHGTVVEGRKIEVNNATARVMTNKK
Sequence = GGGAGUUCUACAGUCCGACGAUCACAACCCAGGCGUCAGAAGCCUGUUUCUUACUGUCUCCCCAGAGACUCAAGUGUCUUCUGCUCCCAAGGGAGUUCCUUCCUGCUUGUUUGUUUGAAUGUUGAUUUUUUUUUGGAAUUCUCGGGUGCCAA; value = 9.47
Sequence = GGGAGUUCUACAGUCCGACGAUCUGAUUUGCUUGUUUCAUACUGACAUCUAAAGACAUCAGCCUUCUCUUUGGCAACCCUGGGGAUACUCCUCUGCACCAUAACUUAUUAAUGUUUUUUUAGACAAGGCUAAAUGGAAUUCUCGGGUGCCAA; value = 1.75
Sequence = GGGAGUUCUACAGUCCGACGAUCUGGUAUUUUUAUGUUGUCUUAUUUUAGGUAAGCUUCUGUGUAAAGCUAAAAAUCCUGUGAAUACAAUACUAUCCUUUACAGGCAGACAUUAUUGGUAAACAAGAUCUUGCUGGAAUUCUCGGGUGCCAA; value = 0.447
Sequence = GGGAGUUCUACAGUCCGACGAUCCUGGUGUUAGAUUGUUUUGAAUUCUGUUGUCCACAAGAACUCUGUUCUCGUGUUCUUUUGUUUCCGAGUGCUUAUAAUGCAUGUAGACCUUGUUCUUCGUGAUCCUGCUAUGGAAUUCUCGGGUGCCAA; value = 1.55
Sequence = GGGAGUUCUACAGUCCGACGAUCCAUAGUUUCUAUGAGCGAUAUAAAGAGUUCCUGUUUCCCUUCACUGGGCCUAAGCCUUUCUGCAUUACACUUGAAGCCUUCAGUCAUUUCCUACCACUUAUUACAACAGUUGGAAUUCUCGGGUGCCAA; value = 0.778
Sequence = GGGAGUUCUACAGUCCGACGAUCCUAAAAGAGCCUAAGCAGGAAAAAUCCUAGGGUGAGGCAAUGUUUGCAUGAUGAGAGAGGAAGGGUUUGCCAUAGAGAGCUGAAAUGGGGAUUUAGACUGAUGUGUGCAUUGGAAUUCUCGGGUGCCAA; value = 56.3
Sequence = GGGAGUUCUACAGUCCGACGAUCCUGGACAUAAAUGAGACUAUUGAAGGAAGUAACGUCCCACCGUCGUGAUGCUGUGUGAGAAGAUGGCUUUGCAGACCUCCUGCGCAGUCUCUUGCACUGUGUCCAUCACCUGGAAUUCUCGGGUGCCAA; value = 0.259
Sequence = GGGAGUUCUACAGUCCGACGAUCCAUUCUCUUCCUGGCCAGUAGGAGUGCUGCUGUGCAGGGUCACUGCCUGCCCUGCUCCCUCUCUGGCUCCCAGAAGAUCACAUGCUACCUCUGUCUCAUUUACAAAUUGGUGGAAUUCUCGGGUGCCAA; value = 0.333
Sequence = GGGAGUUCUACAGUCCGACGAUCAGCAUUGUGGCUCCUAGUGCAGCCCUGCUUCCACUCUUGGUUUAGCUGGAACCUUCCCACUCAUGGAAUAUAAGUAAACUCACUUUCUUUGUCACCAAUAAAUGGUAAUAUGGAAUUCUCGGGUGCCAA; value = 0.454

Block 2
Target: Histone acetyltransferase KAT6A, both winged helices, GST fusion (KAT6A, Homo sapiens, UniProt Q92794, residues 1-181)
Technique: protein binding microarray
Molecule type: double-stranded DNA, one strand shown
Medium: in vitro
Tested at: not given
Notes: 8-mer, flanks averaged, mean of 2 arrays, mostly near background
Relative to: not given
Reading: higher = stronger binding
Endpoint: E-score
Construct (chain): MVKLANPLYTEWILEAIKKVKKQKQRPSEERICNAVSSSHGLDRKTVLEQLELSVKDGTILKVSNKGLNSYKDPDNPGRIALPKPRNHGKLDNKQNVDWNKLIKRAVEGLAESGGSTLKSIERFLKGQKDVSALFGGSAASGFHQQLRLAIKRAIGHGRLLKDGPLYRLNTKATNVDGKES
Sequence = GAGAGAAC; value = -0.207
Sequence = ACAGACAA; value = -0.0782
Sequence = GAACCTTA; value = -0.0724
Sequence = GAGATGCA; value = -0.111
Sequence = CAGACAAC; value = -0.0714
Sequence = AGACTTAG; value = -0.136
Sequence = TATTGGGA; value = -0.188
Sequence = AACTGCCG; value = 0.186
Sequence = AGCGTCCC; value = 0.0925
Sequence = TAATTCAA; value = 0.0067
Sequence = CGACAAGC; value = 0.108
Sequence = GCCCTCAA; value = -0.134
Sequence = AACCAAAG; value = -0.257
Sequence = TAAGTCCA; value = -0.178
Sequence = CGGTCACG; value = 0.212
Sequence = GCGAATCC; value = 0.0329
Sequence = CACACCAC; value = -0.136
Sequence = TCGCGGCA; value = 0.352
Sequence = ATGAGAGG; value = -0.282
Sequence = TCACCTAA; value = -0.0453
Sequence = AAATATCC; value = 0.0137
Sequence = AGGTGTAG; value = -0.0794
Sequence = TAATCTAA; value = -0.074
Sequence = ACGTAAAT; value = -0.0264
Sequence = CACGGGGC; value = 0.108

Block 3
Target: Fragile X messenger ribonucleoprotein 1, C-terminal low-complexity region (Fmr1, Mus musculus, UniProt P35922)
Technique: RNA Bind-n-Seq
Molecule type: RNA
Medium: in vitro
Tested at: 200 nM
Notes: whole 134-nt RNA, ends assumed
Together with: 150 mM KCl
Relative to: input library
Reading: higher = stronger binding
Endpoint: log2 enrichment
Sequence = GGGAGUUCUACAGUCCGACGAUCCUCAAGUCCUGUGCUACACAUCGUAUGUACCGAAUCGGGAAGGGAAGGGGAAGGAAAGUAUUAUGUUACGCCGUUCGGAUCUGCACUUCCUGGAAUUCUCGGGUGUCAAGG; value = -0.0143
Sequence = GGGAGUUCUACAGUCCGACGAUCCACAGACAACACGCACCCACACAGACACAGAGGGAAGGGGUUGGGAUGGGGACAGGGUGCACAGCAGGGCGGGGUAGGACCCCAGACCCUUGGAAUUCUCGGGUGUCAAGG; value = 1.26
Sequence = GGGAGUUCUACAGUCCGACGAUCCACAGACAACACGCACCCACACAGACGCAGAGGGAAGGGGUUGGGAUGGGGACAGGGUGCACAGCAGGGCGGGGUAGGACCCCAGCCCCUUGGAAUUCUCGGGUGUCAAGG; value = 1.16
Sequence = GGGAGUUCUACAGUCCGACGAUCCCUGUGCUACACAUCGUAUGUACCGAAUCGGGCCCCCCCGGGGCCCCCCCGGCCCCCCCGGAAAGUAUUAUGUUACGCCGUUCGGAUCUGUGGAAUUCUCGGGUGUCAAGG; value = -0.66
Sequence = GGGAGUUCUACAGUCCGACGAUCCACAGACAACACGCACCCACACAGACACAGAGGGAAGGGGUUGGGUUGGGGACAGGGUGCACAGCAGGGCGGGGUAGGACCCCAGCCCCUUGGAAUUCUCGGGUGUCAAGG; value = 1.37
Sequence = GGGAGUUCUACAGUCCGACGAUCGCAGGAAGUAAAAACAAAUGGAAAUGCUUCGGAUAGUGGCAGGGGUGGGGGUUGCUAAGGAAUGGGUGGGAUGGGAGUGGGUAAAGAGUUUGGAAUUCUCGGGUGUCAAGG; value = 0.228
Sequence = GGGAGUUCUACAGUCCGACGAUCCCUCAAGUCCUGUGCUACACAUCGUAUGUACCGAAUCGGAGGGAGGGAGGGGAAAGUAUUAUGUUACGCCGUUCGGAUCUGCACUUCCAGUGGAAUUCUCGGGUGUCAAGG; value = 0.905
Sequence = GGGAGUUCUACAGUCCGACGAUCUGGCCCUGGUGGAAUGCGGGGAGGAAGAGGUGGCCUCAUGGAUCGUGGUGGUCCCGGUGGAAUGUUCAGAGGUGGCCGUGGUGGAGACAGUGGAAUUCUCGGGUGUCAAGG; value = -0.0624
Sequence = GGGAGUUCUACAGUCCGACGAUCAGUAGCUAUGGUCAACAAAGCAGCUAUGGGCAGCAGCCUCCCACUAGUUACCCACCCCAAACUGGAUCCUACAGCCAAGCUCCAAGUCAAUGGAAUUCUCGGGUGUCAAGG; value = 0.345
Sequence = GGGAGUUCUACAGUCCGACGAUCGUCCUGUGCUACACAUCGUAUGUACCGAAUCGGGGUUUGGGGAAAAAGGGGUUUGGGGAAAGUAUUAUGUUACGCCGUUCGGAUCUGCACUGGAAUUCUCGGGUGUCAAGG; value = 0.789

Block 4
Target: RING finger protein unkempt homolog, zinc fingers 1-6, GST-SBP tag (UNK, Homo sapiens, UniProt Q9C0B0, residues 30-357)
Technique: RNA Bind-n-Seq
Molecule type: RNA
Medium: in vitro
Tested at: not given
Notes: RNA with constant flanks, human-mouse chimeric sites, ends assumed
Relative to: input RNA pool
Reading: higher = stronger binding
Endpoint: bound/input enrichment
Target sequence (chain): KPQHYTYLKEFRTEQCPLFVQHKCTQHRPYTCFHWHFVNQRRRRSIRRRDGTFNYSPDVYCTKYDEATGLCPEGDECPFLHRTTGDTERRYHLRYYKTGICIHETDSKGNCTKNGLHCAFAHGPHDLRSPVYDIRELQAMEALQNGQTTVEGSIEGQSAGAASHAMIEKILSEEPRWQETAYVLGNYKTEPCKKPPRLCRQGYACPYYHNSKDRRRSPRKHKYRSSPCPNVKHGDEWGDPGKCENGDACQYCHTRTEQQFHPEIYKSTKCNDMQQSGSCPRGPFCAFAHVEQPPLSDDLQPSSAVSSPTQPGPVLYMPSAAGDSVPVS
Sequence = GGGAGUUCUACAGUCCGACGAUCCUGAGGAUACCACUGAAAGAGACAUUAAAGAAUCAUUUUGACGGCUCGUUCGUGCAAGAAUAGUCACUGAUCGGGAAACUGGUUCUUCCAAAGGGUUUGGUUUUGUAGACUUUAAUAGUGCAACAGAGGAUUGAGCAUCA; value = 0.779 ratio
Sequence = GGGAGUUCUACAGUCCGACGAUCAAAGAAUGGAUAGAGUGUGCACACGGGAUCGGUGGGACCCGGGCGAAAAAGGAGUGCAAGAUAGAGUAUGAUGAUUUCGAAGAGUGCUUGCUUCGGUACAAAACGAUGAGGCGAAUGCAUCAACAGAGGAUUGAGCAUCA; value = 1.44 ratio
Sequence = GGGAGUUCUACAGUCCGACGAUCUCUGGUCACACUCGUGUGUAUGGUGUUUGCUUUGUGGAUACUUCACUGGGAAAGUUUUUCAUCGGCCAGUUUUCGGAUGACCGCCACUGUUCCAGAUUUAGGACGCUAGUGGCUCACUAUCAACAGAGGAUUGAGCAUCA; value = 0.257 ratio
Sequence = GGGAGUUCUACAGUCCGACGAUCCUGGCCUGGCCCUCCCCAGGGGCCUCCUUUCGUAUAGUCACUGCUUCUGCAUCAGAUACUUUCAGCUGCAACUCCCUACUGGGUGGGGCACCUAUCUCAGGCAGAAGGUUUUGGUACCCUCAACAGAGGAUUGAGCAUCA; value = 0.248 ratio
Sequence = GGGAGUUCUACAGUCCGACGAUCCCAAGUGAUUCAUCCCAAGGACAGGCCGCCCAGUCUGAUGCCUGGACUGAUGACAGUAUGGAAGGGCCUAGUCAAAAUGUUGAAGCUGAGUCAAUUCAGGAUGCCAUGAGUAUGGAAGAGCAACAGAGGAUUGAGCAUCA; value = 0.183 ratio
Sequence = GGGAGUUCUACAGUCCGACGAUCUCGGAUGCUGUGCUGGGUCACUUUUCAUAUCCAGAUCCUUCACAGUGGACAGAUGAAGAACUGGGAAUCCCUCCUGAUGACGAGGACUGAAGGUGUAGACUCAGCCUACGAGUAGGAGCACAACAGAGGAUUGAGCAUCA; value = 0.155 ratio
Sequence = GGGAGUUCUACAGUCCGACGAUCCUCAGAGAUGUGGCAUAUCAGUAUGUGAAAAAGGGGGCUCGUAUAUUUGUGGAAGGGAAAGUGGACUAUGGCGAGUACAUGGAUAAAAAUAAUGUGAGGCGGCAAGCAACAACAAUCAUACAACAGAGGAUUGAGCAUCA; value = 0.362 ratio
Sequence = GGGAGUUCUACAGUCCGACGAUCGUUGCCAGCUUCCGGUUCCGUUGGGCUCGGUUCUCUCAGUGCUACGUUGUCUCUACGCUCUCAAUCCGCCAUCCAACAAACAUGGAUGAUCAGGUAAAGUUUGUGGAGCCCAGCCGGCAGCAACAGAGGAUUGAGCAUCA; value = 0.0749 ratio

For quick reference, copied from above (block 2):
Sequence = GAGAGAAC; value = -0.207
Sequence = ACAGACAA; value = -0.0782
Sequence = GAACCTTA; value = -0.0724
Sequence = GAGATGCA; value = -0.111
Sequence = CAGACAAC; value = -0.0714
